Measured values from different studies.
Protocols differ between the studies behind these lines. Numbers after ± are the reported error.
rep nsp13 helicase: Replicase polyprotein 1ab, nsp13 helicase (rep, Severe acute respiratory syndrome coronavirus 2, UniProt P0DTD1)
rep main protease: Replicase polyprotein 1ab, main protease (rep, Severe acute respiratory syndrome coronavirus 2, UniProt P0DTD1)
rep nsp14 N7-methyltransferase: Replicase polyprotein 1ab, nsp14 N7-methyltransferase (rep, Severe acute respiratory syndrome coronavirus 2, UniProt P0DTD1)
rep nsp14 methyltransferase: Replicase polyprotein 1ab, nsp14 methyltransferase (rep, Severe acute respiratory syndrome coronavirus 2, UniProt P0DTD1)
rep papain-like protease: Replicase polyprotein 1ab, papain-like protease (rep, Severe acute respiratory syndrome coronavirus 2, UniProt P0DTD1)

Cc1ccccc1C1CC(=O)c2c(C)nc(N)nc2C1 (stereo not shown)
fold enrichment (rep nsp13 helicase; binding, affinity selection mass spectrometry; baseline: other proteins in batch): 0.895

COc1cc(OCc2ccccn2)ccc1/C=C/c1cc(/C=C/c2ccc3cc[nH]c3c2)n[nH]1
inhibition (rep main protease; viral replication, mKate2 reporter; SARS-CoV-2; 20 µM): -0.867%

CNC(=O)[C@@H](NC(=O)[C@H](CC(C)C)[C@H](O)C(=O)NO)C(C)(C)C
viability difference (C2C12; 1 µM, with: TN venom; baseline: venom alone): 9.39%

CC[C@H](C)[C@H](NC(=O)[C@H](CC(C)C)NC(=O)[C@H](Cc1c[nH]c2ccccc12)NC(=O)[C@H](CCC(N)=O)NC(=O)[C@@H](NC(=O)[C@H](Cc1ccccc1)NC(=O)[C@H](C)NC(=O)[C@H](CCCCNC(=O)COCCOCCNC(=O)COCCOCCNC(=O)CC[C@H](NC(=O)CCCCCCCCCCCCCCCCCCC(=O)O)C(=O)O)NC(=O)[C@H](CCC(N)=O)NC(=O)[C@H](C)NC(=O)[C@@H](NC(=O)[C@H](CCCCN)NC(=O)[C@H](CC(=O)O)NC(=O)[C@H](CC(C)C)NC(=O)C(C)(C)NC(=O)[C@@H](NC(=O)[C@H](CO)NC(=O)[C@H](Cc1ccc(O)cc1)NC(=O)[C@H](CC(=O)O)NC(=O)[C@H](CO)NC(=O)[C@@H](NC(=O)[C@H](Cc1ccccc1)NC(=O)[C@@H](NC(=O)CNC(=O)[C@H](CCC(=O)O)NC(=O)C(C)(C)NC(=O)[C@@H](N)Cc1ccc(O)cc1)[C@@H](C)O)[C@@H](C)O)[C@@H](C)CC)[C@@H](C)CC)C(C)C)C(=O)N[C@@H](C)C(=O)NCC(=O)NCC(=O)N1CCC[C@H]1C(=O)N[C@@H](CO)C(=O)N[C@@H](CO)C(=O)NCC(=O)N[C@@H](C)C(=O)N1CCC[C@H]1C(=O)N1CCC[C@H]1C(=O)N1CCC[C@H]1C(=O)N[C@@H](CO)C(N)=O
subjects with acute pancreatitis (healthy subjects; all MAD doses): 0%

CC(C)(C)NC(=O)[C@@H]1CN(Cc2cccnc2)CCN1C[C@@H](O)C[C@@H](Cc1ccccc1)C(=O)N[C@H]1c2ccccc2C[C@H]1O
inhibition (rep main protease; reporter gene (mKate2), inhibitor; 20 µM): -0.0941%

O=C(NC[C@@H]1CC2(CCOCC2)CN1C(=O)C1=Cc2ccccc2OC1)c1cncnc1
inhibition (rep main protease; enzyme activity, inhibitor; 5 µM, run 2): 14.1%

Nc1c(S(=O)(=O)O)cc(Nc2ccc(Nc3nc(Cl)nc(Nc4cccc(S(=O)(=O)O)c4)n3)c(S(=O)(=O)O)c2)c2c1C(=O)c1ccccc1C2=O
Hill slope (rep nsp14 N7-methyltransferase; N7-methyltransferase activity, inhibitor, Py-FLINT): 0.62 ± 0.06

O=C(NC[C@H](NC(=O)c1cncc2ccccc12)c1ccc2ccccc2c1)C1=COCC1
inhibition (rep main protease; enzyme activity, inhibitor; 5 µM, mean of runs): 13.7%

N.N.N.N.N.N.N.N.N.N.N.N.N.N.[Cl-].[Cl-].[Cl-].[Cl-].[Cl-].[Cl-].[O-2].[O-2].[Ru+3].[Ru+3].[Ru+4]
Hill slope (rep nsp14 N7-methyltransferase; N7-methyltransferase activity, inhibitor, Py-FLINT): 2.2 ± 0.39

N#C[C@@]1(n2ccc(N)nc2=O)O[C@H](COP(=O)(O)OP(=O)(O)OP(=O)(O)O)[C@@H](O)[C@H]1O
kcat (Replicase polyprotein 1ab, nsp12 with nsp7/nsp8 (rep, Severe acute respiratory syndrome coronavirus 2, UniProt P0DTD1); substrate; templating base G): 2.9 s⁻¹

N=C(N)c1ccccc1
inhibition (rep main protease; reporter gene (mKate2), inhibitor; 20 µM): -0.241%

CCC1CC(c2ccc(C(=O)O)cc2)=NN1c1ccc(C#N)c(Cl)c1.N (stereo not shown)
lipophilic ligand efficiency (rep nsp14 methyltransferase): 2.6

COc1nc2ccc(Br)cc2cc1[C@@H](c1ccccc1)[C@@](O)(CCN(C)C)c1cccc2ccccc12
activity vs control (rep main protease; enzyme activity, inhibitor, FRET; 100 µM): < 40%

CC(C)=CCOc1ccc(/C=C/C(=O)c2ccc(OCC=C(C)C)cc2OCC(=O)O)cc1
Hill slope (rep nsp14 N7-methyltransferase; N7-methyltransferase activity, inhibitor, Py-FLINT): 2.33 ± 0.15

C=C[C@@H]1C[C@]1(NC(=O)[C@@H]1C[C@@H](Oc2ncc(OC)c3ccc(Cl)cc23)CN1C(=O)[C@@H](NC(=O)OC(C)(C)C)C(C)(C)C)C(=O)NS(=O)(=O)C1CC1
inhibition (rep main protease; reporter gene (mKate2), inhibitor; 20 µM): -0.0949%

Cc1cnc(F)c(C(=O)NC[C@@H]2c3ccccc3CCN2C(=O)c2cccc3[nH]ccc23)c1
inhibition (rep main protease; enzyme activity, inhibitor; 5 µM, run 1): 10.9%

CC[C@H](NC(C)=O)C(=O)N[C@@H](CCCN)C(=O)N[C@@H](CC(C)C)C(=O)N[C@@H](CCC(N)=O)C(=O)Nc1ccc2c(C)cc(=O)oc2c1
apparent kcat (rep main protease; substrate; 5% DMSO; pH 7.2, 37 °C): 0.14 s⁻¹

NC1=N[C@@]2(c3cc(NC(=O)c4ccc(F)cn4)ccc3F)COC[C@H]2CS1
inhibition (rep main protease; reporter gene (mKate2), inhibitor; 20 µM): -0.549%

CC1CC(c2ccc(C(=O)O)cc2)=NN1c1ccc(C#N)c(Cl)c1.N (stereo not shown)
lipophilic ligand efficiency (rep nsp14 methyltransferase): 1.9

O=C(NC[C@H]1Cc2ccccc2CN1C(=O)c1n[nH]c(=O)[nH]c1=O)c1cccc2ccncc12
inhibition (rep main protease; enzyme activity, inhibitor; 5 µM, mean of runs): 11.1%

O=c1oc2c(O)c(O)cc3c(=O)oc4c(O)c(O)cc1c4c23
Hill slope (rep nsp14 N7-methyltransferase; N7-methyltransferase activity, inhibitor, Py-FLINT): 1.52 ± 0.25

O=C(N[C@@H](CNC(=O)[C@H]1CCCc2[nH]cnc21)c1ccc2ccccc2c1)c1cccnn1
inhibition (rep main protease; enzyme activity, inhibitor; 5 µM, run 2): 11.6%

CC(C)[C@H](O)C(=O)N[C@@H](C)C(=O)N[C@@H]1C(=O)N(C)CCc2ccccc21
inhibition (rep main protease; reporter gene (mKate2), inhibitor; 20 µM): -0.768%

CCN(Cc1cn(C[C@H]2O[C@@H](n3cnc4c(N)ncnc43)[C@H](O)[C@@H]2O)nn1)S(=O)(=O)c1ccc(C)cc1
remaining binding (rep nsp14 N7-methyltransferase; N7-methyltransferase activity, inhibitor, radioactive filter binding; 50 µM, 0.5 h, 30 °C, with: GpppAC4 RNA, SAM): > 50%

CCOc1nc2cccc(C(=O)OC(C)OC(=O)OC3CCCCC3)c2n1Cc1ccc(-c2ccccc2-c2nn[nH]n2)cc1 (stereo not shown)
Hill slope (rep nsp14 N7-methyltransferase; N7-methyltransferase activity, inhibitor, Py-FLINT): 2.15 ± 0.22

Cc1nn(-c2ccc(Cl)cc2)c2c1C(c1ccc(Cl)cc1Cl)C(C#N)=C(N)O2 (stereo not shown)
inhibition (rep main protease; 3CL protease activity; 0.0001 µg/mL, 90 min, enzyme 0.1 ng/mL): 3.72%

ivermectin
ATPase inhibition (rep nsp13 helicase; ATP hydrolysis, inhibitor, ADP-Glo; concentration not given): no inhibition

CCC(C(=O)Nc1cc(NC2CCOC2)ccc1C)n1cc(Cl)cc2nc(SCc3ccc(F)cc3)nc1-2 (stereo not shown)
koff (rep papain-like protease; binding): 0.103 s⁻¹

catechin gallate
kinact (rep main protease; inactivator): 0.0014 min⁻¹

CC(C)(C)c1ccc(N(C(=O)CCl)C(C(=O)NC2CCCCC2)c2cccnc2)cc1 (stereo not shown)
kinact (rep main protease; enzyme activity, inhibitor): 0.18 min⁻¹

CN1c2ccccc2C(=O)Nc2cnc(Nc3ccc(N4CCC(O)CC4)cc3)nc21
inhibition (rep main protease; viral replication, mKate2 reporter; SARS-CoV-2; 20 µM): 0.606%

Cc1cccc(N2CC(C(=O)O)CC2=O)c1 (stereo not shown)
log fold enrichment (rep nsp13 helicase; binding, affinity selection mass spectrometry; baseline: other proteins in batch): -0.0519

Cn1cnc(Cn2c(=O)[nH]/c(=N\c3cc4cn(C)nc4cc3Cl)n(Cc3cc(F)c(F)cc3F)c2=O)n1
patients with adverse event (human, moderate renal impairment; oral, 375 mg, vessel puncture site haemorrhage TEAE, Moderate severity): 0%

C=CCn1c(CSc2ccccc2[N+](=O)[O-])n[nH]c1=S
dsRNA unwinding activity (rep nsp13 helicase; inhibitor, gel; 1 mM, 60 min): inhibited

O=C(NC[C@H](NC(=O)c1cncc2c1CCNC2=O)c1ccc2ccccc2c1)c1ccon1
inhibition (rep main protease; enzyme activity, inhibitor; 5 µM, run 1): 12.1%

CC(C)C[C@H](NC(=O)[C@@H](NC(=O)OCc1ccccc1)C(C)(C)C)C(=O)N(C)N(C#N)CCC(N)=O
kinact/Ki (rep main protease; inhibitor, biochemical): 2060 M⁻¹ s⁻¹

c1cnc2c(c1)ccc1cccnc12
inhibition (rep main protease; reporter gene (mKate2), inhibitor; 20 µM): -0.724%

O=C1c2c(O)ccc(O)c2C(=O)c2c(NCCNCCO)ccc(NCCNCCO)c21
Hill slope (rep nsp14 N7-methyltransferase; N7-methyltransferase activity, inhibitor, Py-FLINT): 1.15 ± 0.1

CN(C(=O)[C@H](Cc1ccccc1)NC(=O)OCc1ccccc1)N(C#N)CCC(N)=O
kinact/Ki (rep main protease; inhibitor, biochemical): 1150 M⁻¹ s⁻¹

CC(=O)Nc1ccc(N2C(=O)c3cccc4c(Cl)ccc(c34)C2=O)cc1
Hill slope (rep nsp14 N7-methyltransferase; N7-methyltransferase activity, inhibitor, Py-FLINT): 0.88 ± 0.21

CCC(C(=O)Nc1cc(NC2CCNC2)ccc1C)n1cccc2nc(SCc3ccc(F)cc3)nc1-2 (stereo not shown)
koff (rep papain-like protease; binding): 0.048 ± 0.003 s⁻¹

Nc1ncnc2c([C@@H]3N[C@H](CO)[C@@H](O)[C@H]3O)c[nH]c12
inhibition (Marburg virus; surface glycoprotein expression; HeLa, Musoke; 50 µM, 12 h): 91.8%

O=C(NCC[C@@H]1c2ccccc2CCN1C(=O)c1ncnc2[nH]ccc12)c1ccc[n+]([O-])c1
inhibition (rep main protease; enzyme activity, inhibitor; 5 µM, run 1): 12.8%

CCOC(=O)c1c(NC(=O)c2ccc3c(c2)CC(c2ccccc2)OC3=O)sc(C)c1C (stereo not shown)
Hill slope (rep nsp14 N7-methyltransferase; N7-methyltransferase activity, inhibitor, Py-FLINT): 1.04 ± 0.08

O=C(c1cccc(-c2n[nH]c(=O)[nH]2)c1)N1CCO[C@H](c2cn(-c3cccnc3)nn2)C1
inhibition (rep main protease; enzyme activity, inhibitor; 5 µM): 16.1%

CCCCCCCCCC(C)CCC(C)C(=O)OCc1ccccc1 (stereo not shown)
activity (rep main protease; binding; concentration not given): inactive

For quick reference, copied from above:
C=CCn1c(CSc2ccccc2[N+](=O)[O-])n[nH]c1=S
dsRNA unwinding activity (rep nsp13 helicase; inhibitor, gel; 1 mM, 60 min): inhibited

O=C(NC[C@H](NC(=O)c1cncc2c1CCNC2=O)c1ccc2ccccc2c1)c1ccon1
inhibition (rep main protease; enzyme activity, inhibitor; 5 µM, run 1): 12.1%

CC(C)C[C@H](NC(=O)[C@@H](NC(=O)OCc1ccccc1)C(C)(C)C)C(=O)N(C)N(C#N)CCC(N)=O
kinact/Ki (rep main protease; inhibitor, biochemical): 2060 M⁻¹ s⁻¹

c1cnc2c(c1)ccc1cccnc12
inhibition (rep main protease; reporter gene (mKate2), inhibitor; 20 µM): -0.724%

O=C1c2c(O)ccc(O)c2C(=O)c2c(NCCNCCO)ccc(NCCNCCO)c21
Hill slope (rep nsp14 N7-methyltransferase; N7-methyltransferase activity, inhibitor, Py-FLINT): 1.15 ± 0.1

CN(C(=O)[C@H](Cc1ccccc1)NC(=O)OCc1ccccc1)N(C#N)CCC(N)=O
kinact/Ki (rep main protease; inhibitor, biochemical): 1150 M⁻¹ s⁻¹

CC(=O)Nc1ccc(N2C(=O)c3cccc4c(Cl)ccc(c34)C2=O)cc1
Hill slope (rep nsp14 N7-methyltransferase; N7-methyltransferase activity, inhibitor, Py-FLINT): 0.88 ± 0.21

CCC(C(=O)Nc1cc(NC2CCNC2)ccc1C)n1cccc2nc(SCc3ccc(F)cc3)nc1-2 (stereo not shown)
koff (rep papain-like protease; binding): 0.048 ± 0.003 s⁻¹
